Results from different studies.
Lines come from different studies, so protocols differ.
Target: Serine/threonine-protein kinase MRCK gamma (CDC42BPG, Homo sapiens, UniProt Q6DT37)
Sequence of UniProt Q6DT37 (whole entry, looked up): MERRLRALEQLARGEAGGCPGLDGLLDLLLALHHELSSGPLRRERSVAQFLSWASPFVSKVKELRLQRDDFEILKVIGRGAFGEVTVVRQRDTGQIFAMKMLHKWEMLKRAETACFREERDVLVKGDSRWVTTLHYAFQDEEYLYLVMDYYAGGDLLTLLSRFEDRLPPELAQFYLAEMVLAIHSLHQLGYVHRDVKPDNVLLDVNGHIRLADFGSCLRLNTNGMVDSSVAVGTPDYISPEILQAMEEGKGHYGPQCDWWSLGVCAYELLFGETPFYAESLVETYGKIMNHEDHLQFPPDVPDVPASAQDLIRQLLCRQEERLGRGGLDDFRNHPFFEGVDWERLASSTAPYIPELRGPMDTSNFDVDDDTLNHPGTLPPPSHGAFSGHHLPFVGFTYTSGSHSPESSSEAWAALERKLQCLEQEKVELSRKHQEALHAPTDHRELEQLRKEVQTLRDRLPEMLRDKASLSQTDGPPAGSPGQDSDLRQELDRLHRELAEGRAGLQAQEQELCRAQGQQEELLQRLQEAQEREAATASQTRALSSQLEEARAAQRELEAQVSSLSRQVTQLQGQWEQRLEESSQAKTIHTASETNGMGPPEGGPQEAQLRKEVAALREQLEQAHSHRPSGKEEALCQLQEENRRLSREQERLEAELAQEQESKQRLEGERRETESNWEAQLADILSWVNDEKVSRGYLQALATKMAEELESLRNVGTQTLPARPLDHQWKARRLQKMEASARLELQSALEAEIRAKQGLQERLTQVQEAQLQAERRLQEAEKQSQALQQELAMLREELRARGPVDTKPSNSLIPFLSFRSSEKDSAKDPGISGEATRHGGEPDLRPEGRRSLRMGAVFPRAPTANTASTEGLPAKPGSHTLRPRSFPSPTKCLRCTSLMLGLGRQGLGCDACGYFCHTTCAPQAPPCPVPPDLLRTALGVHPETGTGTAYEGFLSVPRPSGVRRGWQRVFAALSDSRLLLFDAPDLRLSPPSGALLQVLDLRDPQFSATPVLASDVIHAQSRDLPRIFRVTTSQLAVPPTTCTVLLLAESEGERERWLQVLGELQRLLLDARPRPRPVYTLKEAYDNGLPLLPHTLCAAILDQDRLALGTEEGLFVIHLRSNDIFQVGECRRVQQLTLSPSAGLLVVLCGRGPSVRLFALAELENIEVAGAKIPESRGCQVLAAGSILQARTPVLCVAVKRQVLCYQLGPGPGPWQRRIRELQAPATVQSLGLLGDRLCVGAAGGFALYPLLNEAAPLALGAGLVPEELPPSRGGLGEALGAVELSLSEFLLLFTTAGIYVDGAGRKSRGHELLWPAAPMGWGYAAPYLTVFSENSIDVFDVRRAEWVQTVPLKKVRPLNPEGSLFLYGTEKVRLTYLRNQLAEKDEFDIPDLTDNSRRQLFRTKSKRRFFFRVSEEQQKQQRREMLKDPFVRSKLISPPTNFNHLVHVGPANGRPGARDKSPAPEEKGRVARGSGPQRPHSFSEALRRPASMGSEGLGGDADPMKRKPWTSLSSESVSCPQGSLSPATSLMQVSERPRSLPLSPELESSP

O=C(NCC1CCOCC1)c1n[nH]cc1NC(=O)c1c(F)cccc1F — remaining binding (scanMAX; 1 µM; baseline: untreated): 98%
O=C(c1ccc(Nc2ncc(Cl)c(-c3ccc(Cl)s3)n2)cc1)N1CCC(N2CCCC2)CC1 — remaining binding (binding, KINOMEscan competition binding; 1 µM; baseline: DMSO control): 38%
Cn1c2c(c3ccc(Cl)c(Cl)c31)C(C#N)C(C)(C)NC2=O (stereo not shown) — ΔTm (thermal shift; 10 µM, 2 µM protein; higher = stronger binding): -1.2 °C
O=C(c1ccc(Nc2nccc(-c3cc4ccccc4s3)n2)cc1)N1CCC(N2CCCC2)CC1 — remaining binding (binding, KINOMEscan competition binding; 1 µM; baseline: DMSO control): 94%
c1cncc(-c2cccc(Nc3nccc(NC4CCCCC4)n3)c2)c1 — remaining binding (KINOMEscan; 10 µM): 100%
CC(C)(O)[C@H]1CC[C@H](Nc2ccc3ncc(-c4cccc(C(F)(F)F)c4)n3n2)CC1 — remaining activity (enzyme activity, inhibitor; 1 µM, added: 10 µM ATP; baseline: DMSO): 110%
COc1cnc(Nc2cccc(S(N)(=O)=O)c2)nc1N1CCN(c2ccccc2)C(=O)C1 — remaining binding (KINOMEscan; 1 µM): 100%
CC1(C)NC(=O)c2[nH]c3c(Cl)c(Cl)ccc3c2C1C#N (stereo not shown) — ΔTm (thermal shift; 10 µM, 2 µM protein; higher = stronger binding): -0.7 °C
C=CC(=O)Nc1ccc(OC)c(Nc2cc(-c3[nH]c(SC)nc3-c3cccc(NC(=O)c4cccc(O)c4CN4Cc5ccccc5C4=O)c3)ccn2)c1 — remaining activity (1 µM; baseline: control): < 10%
Cn1c2c(c3ccc(Cl)c(Cl)c31)C(C#N)C1(CCOCC1)NC2=O (stereo not shown) — ΔTm (thermal shift; 10 µM, 2 µM protein; higher = stronger binding): -0.9 °C
O=C(NCCCN1CCOCC1)c1ccc(Nc2nccc(-c3cc4ccccc4s3)n2)cc1 — remaining binding (binding, KINOMEscan competition binding; 1 µM; baseline: DMSO control): 100%
Cn1c2c(c3ccc(Cl)c(Cl)c31)C(C#N)C1(CCCC1)NC2=O (stereo not shown) — ΔTm (thermal shift; 10 µM, 2 µM protein; higher = stronger binding): -0.9 °C
C#Cc1cc(-c2cc(Nc3nc(N[C@@H](C)c4ccc(F)cn4)ncc3Cl)n[nH]2)ccc1C=O — inhibition (enzyme activity, inhibitor; 0.2 µM): 7.66%
O=C(NC1CCC1)c1ccc2nc(-c3cccc(NS(=O)(=O)NCCN4CCCCC4)c3)cn2c1 — remaining activity (enzyme activity; 10 µM): 100%
Cn1c2c(Cl)c(Cl)ccc2c2cc[nH]c(=O)c21 — ΔTm (thermal shift; 10 µM, 2 µM protein; higher = stronger binding): 0.8 °C
Nc1ncnc2occ(-c3ccc(NC(=O)Nc4cc(C(F)(F)F)ccc4F)cc3)c12 — remaining activity (enzyme activity, inhibitor; 20 µM): 1.7%

Some of these lines once more:
Nc1ncnc2occ(-c3ccc(NC(=O)Nc4cc(C(F)(F)F)ccc4F)cc3)c12 — remaining activity (enzyme activity, inhibitor; 20 µM): 1.7%
O=C(NCC1CCOCC1)c1n[nH]cc1NC(=O)c1c(F)cccc1F — remaining binding (scanMAX; 1 µM; baseline: untreated): 98%
